Published values pooled from the literature.
Compare with care: the assays were run in different laboratories. Numbers after ± are the reported error.

| Structure (SMILES) | cell line | assay | system | setting | how to read | measurement | value |
| --- | --- | --- | --- | --- | --- | --- | --- |
| CC[C@H](C)[C@H](NC(=O)[C@H](CC(=O)O)NC(=O)[C@H](CCC(=O)O)NC(=O)[C@@H](N)CC(N)=O)C(=O)N[C@@H](CC(=O)O)C(=O)N[C@@H](CCC(N)=O)C(=O)N[C@@H](CCSC)C(=O)N[C@@H](Cc1ccccc1)C(=O)N[C@@H](CO)C(=O)N[C@H](C(=O)N[C@@H](CC(C)C)C(=O)N[C@@H](CC(C)C)C(=O)NCC(=O)N[C@@H](CCC(=O)O)C(=O)N[C@@H](CCSC)C(=O)N[C@@H](CC(=O)O)C(=O)N[C@@H](CC(C)C)C(=O)N[C@@H](CC(C)C)C(=O)N[C@H](C(=O)N[C@@H](CCC(N)=O)C(=O)N[C@@H](CO)C(=O)O)[C@@H](C)O)[C@@H](C)O | CHO | cell uptake, flow cytometry | – | 30 min, 37 °C | – | uptake concentration | ≥ 5 µM |
| COc1ccc(NC(=S)N/N=C/c2cccc3cc4ccccc4nc23)cc1 | HeLa | annexin V/PI | – | IC12.5, 48 h | – | viable cells | 84.6 ± 0.45% |
| N#Cc1ccc(Nc2nc(N)cc(Oc3ccc(-c4ccc(C#N)cc4)c(F)c3)n2)cc1 | MT4 uninfected | – | – | – | – | CC50 | 10.8 µM |
| COc1ccc(-c2nc(NS(=O)(=O)c3ccccc3)nc(N)c2-c2nc3ccccc3s2)cc1 | Huh7.5 | cytotoxicity | – | 72 h | – | maximum non-toxic concentration | 100 µg/mL |
| Cc1cc(Nc2ccc(S(F)(F)(F)(F)F)cc2)n2nc(C(C)(F)F)nc2n1 | SIRC | – | culture medium | 20 µM, 48 h | – | free drug concentration | 2400 nM |
| N#Cc1ccc(Nc2nc(N)cc(Oc3c(F)cc(-c4ccc(C#N)cc4)cc3F)n2)cc1 | MT4 uninfected | – | – | – | – | CC50 | 117 µM |
| CCCCc1oc2ccccc2c1C(=O)c1cc(I)c(OCCN(CC)CC)c(I)c1 | H9 human embryonic stem cell aggregates | qRT-PCR | 3D aggregates | 4 µM, 5 days, developmental toxicity model | direction not given | ALERT score | 11 |
| Nc1n[nH]c2c(-c3nc4ccccc4s3)c(N)n(NS(=O)(=O)c3ccccc3)c(=O)c12 | Huh7.5 | – | – | 72 h | – | maximum non-toxic concentration | 90 µg/mL |
| N#Cc1ccc(Nc2nc(N)cc(Oc3c(F)cc(-c4ccccc4C#N)cc3F)n2)cc1 | MT4 uninfected | – | – | – | – | CC50 | > 256 µM |
| Cc1noc(C)c1Cn1cc(N2C(=O)CN(Cc3cccc(O)c3)C2=O)cn1 | human blood lymphocytes | – | – | 823.8 µg/mL, 3 h, with 2% S9 | – | aberrant cells with gaps | 2.5% |
| O=C1c2cccc(O)c2C(=O)c2c(O)cc(CO)cc21 | HK-2 co-cultured with HepaRG | MTT | – | 266.67 µM, 48 h | baseline: untreated control | viability | 11.1 ± 6.88% |
| CSc1nc(NS(=O)(=O)c2ccc(C)cc2)nc(N)c1-c1nc2ccccc2s1 | Huh7.5 | cytotoxicity | – | 72 h | – | maximum non-toxic concentration | 100 µg/mL |
| COc1cc(O)c2c(c1)C(=O)c1cc(C)cc(O)c1C2=O | HK-2 co-cultured with HepaRG | MTT | – | 266.67 µM, 24 h | baseline: untreated control | viability | 99.6 ± 10.3% |
| c1csc(CNc2cc[nH]n2)c1 | human peripheral blood lymphocytes, female | – | – | 1560 µg/mL, 4 h, without S9 | – | cells with structural aberrations | 1.5% |
| C=CCNC1=C2C[C@@H](C)C[C@H](OC)[C@H](O)[C@@H](C)/C=C(\C)[C@H](OC(N)=O)[C@@H](OC)/C=C\C=C(/C)C(=O)NC(=CC1=O)C2=O | MYBPC3-mutant iPSC cardiomyocytes | cell viability | – | 24 h | – | EC50 | > 60 µM |
| CCCCc1oc2ccc(NS(C)(=O)=O)cc2c1C(=O)c1ccc(OCCCN(CCCC)CCCC)cc1 | H9 human embryonic stem cell aggregates | qRT-PCR | 3D aggregates | 0.1 µM, 5 days, developmental toxicity model | direction not given | ALERT score | 2 |
| O=C(O)c1cc(O)c2c(c1)C(=O)c1cccc(O)c1C2=O | HK-2 co-cultured with HepaRG | MTT | – | 266.67 µM, 24 h | baseline: untreated control | viability | 46.5 ± 12.1% |
| CCSc1c(-c2nc3ccccc3s2)c(N)n(NS(=O)(=O)c2ccc(C)cc2)c(=O)c1C#N | Huh7.5 | – | – | 72 h | – | maximum non-toxic concentration | 120 µg/mL |
| N#Cc1ccc(Nc2nc(N)cc(Oc3ccc(-c4ccc(C#N)c(F)c4)cc3F)n2)cc1 | MT4 uninfected | – | – | – | – | CC50 | 241 ± 20.7 µM |
| COc1ccc2c(Cc3ccccc3F)c3[n+](cc2c1OC)CCc1cc2c(cc1-3)OCO2 | CHO-K1 | cytotoxicity, CCK-8 | – | 24 h | – | IC50 | 30.5 µM |
| CC(=O)CNc1nc(NS(=O)(=O)c2ccccc2)ncc1-c1nc2ccccc2s1 | Huh7.5 | cytotoxicity | – | 72 h | – | maximum non-toxic concentration | 80 µg/mL |
| Cc1cn([C@H]2C[C@H](N=[N+]=[N-])[C@@H](CO)O2)c(=O)[nH]c1=O | MT4 uninfected | – | – | – | – | CC50 | > 7 µM |

| Structure (SMILES) | cell line | assay | system | setting | how to read | measurement | value |
| --- | --- | --- | --- | --- | --- | --- | --- |
| COc1cc2c(c(O)c1OC)C(=O)c1c(cc(C)c(O[C@@H]3O[C@H](CO)[C@@H](O)[C@H](O)[C@H]3O)c1OC)C2=O | HK-2 co-cultured with HepaRG | MTT | – | 266.67 µM, 24 h | baseline: untreated control | cell viability | 45.7 ± 14.3% |
| CCOC(=O)c1cc(C#N)c(=O)n(NS(=O)(=O)c2ccc(C)cc2)c1N | Huh7.5 | – | – | 72 h | – | maximum non-toxic concentration | 90 µg/mL |
| N#Cc1ccc(Nc2nc(N)cc(Oc3ccc(-c4ccc(C#N)c(C#N)c4)cc3)n2)cc1 | MT4 uninfected | – | – | – | – | CC50 | 218 ± 19.4 µM |
| N=C(N)c1ccc(OCCCCCOc2ccc(C(=N)N)cc2)cc1 | human primary fibroblasts | viability, MTS | – | 24 h | – | CC50 | > 20 µM |
| Nc1nc(NS(=O)(=O)c2ccccc2)nc(-c2ccc(F)cc2)c1-c1nc2ccccc2s1 | Huh7.5 | cytotoxicity | – | 72 h | – | maximum non-toxic concentration | 100 µg/mL |
| C/C(O)=C(\C#N)C(=O)Nc1ccc(C(F)(F)F)cc1 | SIRC | – | culture medium | 3 µM, 48 h | – | free drug concentration | 780 nM |
| COc1c(O)cc2c(c1O)C(=O)c1c(cc(C)c(O)c1OC)C2=O | HK-2 co-cultured with HepaRG | MTT | – | 133.33 µM, 24 h | baseline: untreated control | viability | 89.2 ± 12.5% |
| CCSc1c(-c2nc3ccccc3s2)c(N)n(NS(=O)(=O)c2ccccc2)c(=O)c1C#N | Huh7.5 | – | – | 72 h | – | maximum non-toxic concentration | 120 µg/mL |
| CCCC(CCC)NC(=O)c1ccc2c(c1)OCO2 | CHO-WBL | – | – | 5.0 mg/mL, 3 h, with rat liver S9 | baseline: vehicle control | relative cell growth | 107% |
| COc1cccc(-c2n[nH]c(SCc3ccccn3)n2)c1OC | CHO-WBL | – | – | 31 µg/mL, 19 h, without S9 | – | binucleated cells with micronuclei | 1.3% |
| Cc1cc(C(=O)NC(C)(C)COc2cccc3c2C(N)=NS(=O)(=O)N3)cc(C)n1 | human peripheral blood lymphocytes | CBPI, concurrent micronucleus test | – | 500 µg/mL, 24 h | baseline: vehicle control | cytotoxicity | 1% |
| CCc1ncn(CC(c2c[nH]c3ccc(C)cc23)c2c[nH]c3ccc(C)cc23)c1C(=O)OC | human primary fibroblasts | viability, MTS | – | 24 h | – | CC50 | > 20 µM |
| Nc1nc(NS(=O)(=O)c2ccccc2)nc(-c2ccc(Cl)cc2)c1-c1nc2ccccc2s1 | Huh7.5 | cytotoxicity | – | 72 h | – | maximum non-toxic concentration | 100 µg/mL |
| CC(=O)c1c(C)cc2cc(O)cc(O[C@@H]3O[C@H](CO)[C@@H](O)[C@H](O)[C@H]3O)c2c1O | HK-2 co-cultured with HepaRG | MTT | – | 16.67 µM, 48 h | baseline: untreated control | cell viability | 99.8 ± 4.17% |
| O=C(Nc1cc(F)cc2cccnc12)c1cnc(NCCN2CCS(=O)(=O)CC2)cn1 | MIA PaCa-2 | MTT | – | concentration not given | – | cytotoxicity | not toxic |
| N#Cc1ccc(Nc2nc(N)cc(Oc3ccc(-c4ccccc4)cc3)n2)cc1 | MT4 uninfected | – | – | – | – | CC50 | 25.6 ± 8.09 µM |
| Cc1ccc(C(=O)CNc2nc(NS(=O)(=O)c3ccccc3)ncc2-c2nc3ccccc3s2)cc1 | Huh7.5 | cytotoxicity | – | 72 h | – | maximum non-toxic concentration | 100 µg/mL |
| Cc1cc(O)c2c(c1)C(=O)c1cccc(O)c1C2=O | HK-2 co-cultured with HepaRG | MTT | – | 133.33 µM, 24 h | baseline: untreated control | viability | 90.2 ± 16.6% |
| N#Cc1ccc(Nc2nc(N)cc(Oc3ccc(-c4ccc(C#N)cc4)c(C#N)c3)n2)cc1 | MT4 uninfected | – | – | – | – | CC50 | > 291 µM |
| Nc1nc(NS(=O)(=O)c2ccccc2)nc(-c2ccccc2)c1-c1nc2ccccc2s1 | Huh7.5 | cytotoxicity | – | 72 h | – | maximum non-toxic concentration | 90 µg/mL |
| COc1c(O)c(C)cc2c1C(=O)c1c(ccc(O)c1O)C2=O | HK-2 co-cultured with HepaRG | MTT | – | 33.33 µM, 48 h | baseline: untreated control | viability | 84.8 ± 5.94% |

Excerpt of the above:
| Structure (SMILES) | cell line | assay | system | setting | how to read | measurement | value |
| --- | --- | --- | --- | --- | --- | --- | --- |
| CCSc1c(-c2nc3ccccc3s2)c(N)n(NS(=O)(=O)c2ccccc2)c(=O)c1C#N | Huh7.5 | – | – | 72 h | – | maximum non-toxic concentration | 120 µg/mL |
| CCCC(CCC)NC(=O)c1ccc2c(c1)OCO2 | CHO-WBL | – | – | 5.0 mg/mL, 3 h, with rat liver S9 | baseline: vehicle control | relative cell growth | 107% |
| COc1cccc(-c2n[nH]c(SCc3ccccn3)n2)c1OC | CHO-WBL | – | – | 31 µg/mL, 19 h, without S9 | – | binucleated cells with micronuclei | 1.3% |
| Cc1cc(C(=O)NC(C)(C)COc2cccc3c2C(N)=NS(=O)(=O)N3)cc(C)n1 | human peripheral blood lymphocytes | CBPI, concurrent micronucleus test | – | 500 µg/mL, 24 h | baseline: vehicle control | cytotoxicity | 1% |
| CCc1ncn(CC(c2c[nH]c3ccc(C)cc23)c2c[nH]c3ccc(C)cc23)c1C(=O)OC | human primary fibroblasts | viability, MTS | – | 24 h | – | CC50 | > 20 µM |
| Nc1nc(NS(=O)(=O)c2ccccc2)nc(-c2ccc(Cl)cc2)c1-c1nc2ccccc2s1 | Huh7.5 | cytotoxicity | – | 72 h | – | maximum non-toxic concentration | 100 µg/mL |
